{"data": "Measured values pooled from the literature", "note": "Numbered parts are unrelated; each lists some results of a single study.", "chain of UniProt P42336 (whole entry, unmodified, looked up)": "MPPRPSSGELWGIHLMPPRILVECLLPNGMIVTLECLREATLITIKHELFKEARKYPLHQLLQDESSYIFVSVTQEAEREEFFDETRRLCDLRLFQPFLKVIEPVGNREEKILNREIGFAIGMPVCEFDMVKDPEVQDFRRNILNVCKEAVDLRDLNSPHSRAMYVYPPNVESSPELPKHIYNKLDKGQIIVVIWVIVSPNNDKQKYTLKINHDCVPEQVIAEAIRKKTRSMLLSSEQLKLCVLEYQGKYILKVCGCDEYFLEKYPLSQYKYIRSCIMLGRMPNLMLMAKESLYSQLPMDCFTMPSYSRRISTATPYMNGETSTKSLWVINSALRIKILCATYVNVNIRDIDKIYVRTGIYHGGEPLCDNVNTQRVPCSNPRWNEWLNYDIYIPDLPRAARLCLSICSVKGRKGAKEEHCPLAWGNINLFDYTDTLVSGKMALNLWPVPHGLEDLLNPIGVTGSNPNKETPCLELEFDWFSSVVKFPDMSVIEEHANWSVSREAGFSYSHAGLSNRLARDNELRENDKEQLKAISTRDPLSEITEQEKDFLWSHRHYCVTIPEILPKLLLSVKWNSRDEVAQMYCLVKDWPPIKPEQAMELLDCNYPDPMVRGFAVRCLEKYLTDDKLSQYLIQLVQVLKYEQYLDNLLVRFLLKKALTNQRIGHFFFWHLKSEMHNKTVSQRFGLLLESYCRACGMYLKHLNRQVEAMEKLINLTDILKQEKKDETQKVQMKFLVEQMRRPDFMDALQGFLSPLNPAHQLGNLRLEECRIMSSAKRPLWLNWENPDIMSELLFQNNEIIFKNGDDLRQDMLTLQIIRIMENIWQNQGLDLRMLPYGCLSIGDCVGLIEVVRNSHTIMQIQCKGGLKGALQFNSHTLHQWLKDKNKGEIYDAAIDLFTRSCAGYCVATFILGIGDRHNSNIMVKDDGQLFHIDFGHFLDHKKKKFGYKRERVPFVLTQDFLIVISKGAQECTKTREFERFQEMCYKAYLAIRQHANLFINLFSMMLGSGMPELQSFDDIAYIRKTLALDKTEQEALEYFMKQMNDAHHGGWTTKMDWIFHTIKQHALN", "chain of UniProt Q86YV6 (whole entry, looked up)": "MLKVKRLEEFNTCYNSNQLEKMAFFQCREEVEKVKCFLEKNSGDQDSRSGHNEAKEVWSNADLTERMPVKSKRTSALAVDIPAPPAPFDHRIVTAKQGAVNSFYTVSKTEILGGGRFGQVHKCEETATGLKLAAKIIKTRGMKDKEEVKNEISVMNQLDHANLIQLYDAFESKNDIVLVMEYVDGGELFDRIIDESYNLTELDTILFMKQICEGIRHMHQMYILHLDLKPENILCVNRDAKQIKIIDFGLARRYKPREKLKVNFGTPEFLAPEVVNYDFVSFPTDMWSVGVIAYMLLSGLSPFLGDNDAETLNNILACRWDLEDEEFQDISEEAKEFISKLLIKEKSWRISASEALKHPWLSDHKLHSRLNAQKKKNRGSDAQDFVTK", "chain of UniProt P30291 (whole entry, looked up)": "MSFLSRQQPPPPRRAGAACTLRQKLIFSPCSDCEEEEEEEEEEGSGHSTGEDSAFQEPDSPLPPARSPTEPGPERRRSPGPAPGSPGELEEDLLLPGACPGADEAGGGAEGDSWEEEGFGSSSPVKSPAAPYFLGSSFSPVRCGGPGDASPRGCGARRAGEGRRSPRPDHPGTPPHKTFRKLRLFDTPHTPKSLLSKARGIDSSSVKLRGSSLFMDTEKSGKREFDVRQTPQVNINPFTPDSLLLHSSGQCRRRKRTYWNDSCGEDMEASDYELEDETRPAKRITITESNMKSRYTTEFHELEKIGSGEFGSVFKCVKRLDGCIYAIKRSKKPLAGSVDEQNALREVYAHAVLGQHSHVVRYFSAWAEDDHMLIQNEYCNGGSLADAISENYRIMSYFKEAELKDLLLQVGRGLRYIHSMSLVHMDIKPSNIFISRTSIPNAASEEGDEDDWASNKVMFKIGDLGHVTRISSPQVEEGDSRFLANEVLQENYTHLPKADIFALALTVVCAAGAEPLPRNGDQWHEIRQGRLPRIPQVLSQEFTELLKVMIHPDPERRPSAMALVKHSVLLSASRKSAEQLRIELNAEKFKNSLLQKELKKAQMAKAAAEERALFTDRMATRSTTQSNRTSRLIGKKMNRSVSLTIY", "chain of UniProt P08631 (whole entry, looked up)": "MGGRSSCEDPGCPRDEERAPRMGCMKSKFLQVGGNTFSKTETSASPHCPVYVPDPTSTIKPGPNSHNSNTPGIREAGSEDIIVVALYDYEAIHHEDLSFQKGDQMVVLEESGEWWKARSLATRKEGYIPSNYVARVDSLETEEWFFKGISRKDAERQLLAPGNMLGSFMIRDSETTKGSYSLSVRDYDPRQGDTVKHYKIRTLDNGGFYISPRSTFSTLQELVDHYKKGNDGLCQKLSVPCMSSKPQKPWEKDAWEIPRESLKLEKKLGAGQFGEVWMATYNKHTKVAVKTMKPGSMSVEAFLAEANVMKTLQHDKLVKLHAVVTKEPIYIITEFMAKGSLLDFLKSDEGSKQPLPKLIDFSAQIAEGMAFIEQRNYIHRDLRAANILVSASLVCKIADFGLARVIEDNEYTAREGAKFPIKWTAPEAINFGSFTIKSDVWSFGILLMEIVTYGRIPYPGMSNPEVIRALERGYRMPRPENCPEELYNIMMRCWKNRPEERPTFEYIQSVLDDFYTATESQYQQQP", "chain of UniProt Q16659 (whole entry, looked up)": "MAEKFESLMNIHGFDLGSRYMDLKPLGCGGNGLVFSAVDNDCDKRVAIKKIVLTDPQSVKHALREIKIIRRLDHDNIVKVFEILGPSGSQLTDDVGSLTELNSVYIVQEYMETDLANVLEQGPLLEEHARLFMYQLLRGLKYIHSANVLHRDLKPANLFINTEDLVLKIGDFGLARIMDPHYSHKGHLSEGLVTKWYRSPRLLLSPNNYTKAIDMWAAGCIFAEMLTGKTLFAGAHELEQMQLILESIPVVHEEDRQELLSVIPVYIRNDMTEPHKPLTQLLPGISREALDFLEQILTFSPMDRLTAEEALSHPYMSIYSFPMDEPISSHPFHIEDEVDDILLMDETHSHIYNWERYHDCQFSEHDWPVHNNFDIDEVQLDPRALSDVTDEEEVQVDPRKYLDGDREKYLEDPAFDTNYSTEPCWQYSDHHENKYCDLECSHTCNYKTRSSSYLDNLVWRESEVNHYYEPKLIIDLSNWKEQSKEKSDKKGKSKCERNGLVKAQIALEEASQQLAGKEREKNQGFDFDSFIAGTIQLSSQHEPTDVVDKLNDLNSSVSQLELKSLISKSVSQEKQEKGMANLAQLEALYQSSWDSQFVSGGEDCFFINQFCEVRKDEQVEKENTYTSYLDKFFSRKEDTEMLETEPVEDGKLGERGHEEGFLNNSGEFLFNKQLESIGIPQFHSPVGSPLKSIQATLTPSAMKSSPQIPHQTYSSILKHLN", "chain of UniProt P27037 (whole entry, looked up)": "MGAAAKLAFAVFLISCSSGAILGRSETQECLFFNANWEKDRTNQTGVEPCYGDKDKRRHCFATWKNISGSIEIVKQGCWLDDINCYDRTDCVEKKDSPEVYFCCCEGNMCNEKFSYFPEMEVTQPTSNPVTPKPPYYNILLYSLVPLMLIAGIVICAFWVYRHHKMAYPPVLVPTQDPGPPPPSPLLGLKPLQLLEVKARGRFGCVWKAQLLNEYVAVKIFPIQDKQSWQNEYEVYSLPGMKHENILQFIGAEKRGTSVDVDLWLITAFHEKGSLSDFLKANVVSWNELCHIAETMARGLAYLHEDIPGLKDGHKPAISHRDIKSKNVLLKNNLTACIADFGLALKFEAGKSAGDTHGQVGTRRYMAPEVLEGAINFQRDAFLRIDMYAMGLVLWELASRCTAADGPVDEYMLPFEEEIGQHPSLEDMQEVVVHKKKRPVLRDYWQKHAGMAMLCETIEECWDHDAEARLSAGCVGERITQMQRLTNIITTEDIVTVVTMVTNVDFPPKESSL", "chain of UniProt Q9UQB9 (whole entry, looked up)": "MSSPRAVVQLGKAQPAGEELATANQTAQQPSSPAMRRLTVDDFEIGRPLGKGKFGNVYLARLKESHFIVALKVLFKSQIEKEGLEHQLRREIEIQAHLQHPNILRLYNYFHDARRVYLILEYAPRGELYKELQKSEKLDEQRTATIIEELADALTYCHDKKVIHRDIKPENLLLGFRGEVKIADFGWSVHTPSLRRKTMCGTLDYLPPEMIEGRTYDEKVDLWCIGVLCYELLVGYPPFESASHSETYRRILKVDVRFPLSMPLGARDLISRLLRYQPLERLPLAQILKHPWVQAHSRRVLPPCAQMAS"}
{"data": "Set 1", "target": "Cyclin-dependent kinase 9, with cyclin T1 (CDK9, Homo sapiens, UniProt P50750)", "read-out": "enzyme activity", "action": "inhibitor", "tested at": "0.5 µM", "relative to": "control", "chain of UniProt P50750 (whole entry, looked up)": "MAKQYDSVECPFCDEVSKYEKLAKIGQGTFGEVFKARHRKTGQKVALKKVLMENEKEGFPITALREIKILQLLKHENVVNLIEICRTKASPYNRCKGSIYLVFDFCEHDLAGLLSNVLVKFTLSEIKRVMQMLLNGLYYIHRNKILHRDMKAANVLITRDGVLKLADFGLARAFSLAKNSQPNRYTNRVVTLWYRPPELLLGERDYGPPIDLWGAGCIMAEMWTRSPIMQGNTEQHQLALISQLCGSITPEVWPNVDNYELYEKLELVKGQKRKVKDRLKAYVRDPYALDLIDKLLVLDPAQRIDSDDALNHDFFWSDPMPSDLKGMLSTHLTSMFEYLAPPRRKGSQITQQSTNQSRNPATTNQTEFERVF"}
{"Compound": "Cc1cn(-c2cc(NC(=O)c3ccc(C)c(Nc4nccc(-c5cccnc5)n4)c3)cc(C(F)(F)F)c2)cn1", "remaining activity": "94.7%"}
{"Compound": "COc1cc2ncnc(Nc3cccc(Cl)c3)c2cc1OC", "remaining activity": "85.1%"}
{"Compound": "N#C/C(=C\\c1ccc(O)c(O)c1)C(=O)NCc1ccccc1", "remaining activity": "74.9%"}
{"Compound": "O=C(NC(NC(=S)Nc1ccc(F)c([N+](=O)[O-])c1)C(Cl)(Cl)Cl)C(c1ccccc1)c1ccccc1 (centres unmarked)", "remaining activity": "95%"}
{"Compound": "CCN(CC)CCNC(=O)c1c(C)[nH]c(/C=C2\\C(=O)Nc3ccc(Cl)cc32)c1C", "remaining activity": "58.8%"}
{"Compound": "CCN(CC)C(=O)c1ccc(Nc2nc(OCC3CCCCC3)c3[nH]cnc3n2)cc1", "remaining activity": "88.8%"}
{"Compound": "Cc1nc2cc3nc(-c4cccs4)cnc3cc2n1C", "remaining activity": "88.3%"}
{"Compound": "Ic1cccc(CSc2nnc(-c3ccncc3)o2)c1", "remaining activity": "109%"}
{"Compound": "O=C1c2ccccc2-c2n[nH]c3cccc1c23", "remaining activity": "99.3%"}
{"Compound": "COc1cc2c(cc1OC)-c1[nH]nc(Nc3cccc(F)c3)c1C2", "remaining activity": "97.6%"}
{"Compound": "O=c1cc(-c2cccc3c2Sc2ccccc2S3)oc(N2CCOCC2)c1", "remaining activity": "100%"}
{"Compound": "Cc1cc2ncc(-c3ccccc3)nc2cc1C", "remaining activity": "93.9%"}
{"Compound": "CN(C)C[C@H]1CCn2c(c(C3=C(c4cn(C)c5ccccc45)C(=O)NC3=O)c3ccccc32)C1", "remaining activity": "39.6%"}
{"Compound": "CCN(CC)CCNC(=O)c1c(C)[nH]c(/C=C2\\C(=O)Nc3ccc(F)cc32)c1C", "remaining activity": "88.7%"}
{"Compound": "CN([C@@H](Cc1ccc(OS(=O)(=O)c2cccc3cnccc23)cc1)C(=O)N1CCN(c2ccccc2)CC1)S(=O)(=O)c1cccc2cnccc12", "remaining activity": "100%"}
{"Compound": "c1ccc(-c2[nH]ncc2-c2ccnc3ccccc23)nc1", "remaining activity": "80%"}
{"Compound": "c1ccc(-c2cnc(Nc3ccc(OCCN4CCCC4)cc3)s2)cc1", "remaining activity": "66.1%"}
{"Compound": "Nc1cccc(-c2cc3c(Oc4cccc(O)c4)ncnc3[nH]2)c1", "remaining activity": "63.2%"}
{"Compound": "COc1cc2ncnc(Nc3ccc(O)c(Br)c3)c2cc1OC", "remaining activity": "91.4%"}
{"Compound": "N#Cc1c(NC(=O)c2cccc3ccccc23)sc2c1CCCC2", "remaining activity": "100%"}
{"Compound": "O=C1C(Cl)=C(N2C(=O)CCC2=O)C(=O)c2ccccc21", "remaining activity": "101%"}
{"Compound": "O=C(Nc1cccc(Nc2nccc(Nc3cccc(C(F)(F)F)c3)n2)c1)C1CC1", "remaining activity": "86.8%"}
{"Compound": "Cn1nc2c3c(cccc31)C(=O)c1ccccc1-2", "remaining activity": "94.7%"}
{"Compound": "CCOc1nc(NC(=O)Cc2cc(OC)ccc2OC)cc(N)c1C#N", "remaining activity": "100%"}
{"Compound": "C[C@@H]1CCN(C(=O)CC#N)C[C@@H]1N(C)c1ncnc2[nH]ccc12", "remaining activity": "100%"}
{"data": "Set 2", "target": "Calcium/calmodulin-dependent protein kinase type II subunit alpha (CAMK2A, Homo sapiens, UniProt Q9UQM7)", "read-out": "enzyme activity", "action": "inhibitor", "tested at": "10 µM", "chain of UniProt Q9UQM7 (whole entry, looked up)": "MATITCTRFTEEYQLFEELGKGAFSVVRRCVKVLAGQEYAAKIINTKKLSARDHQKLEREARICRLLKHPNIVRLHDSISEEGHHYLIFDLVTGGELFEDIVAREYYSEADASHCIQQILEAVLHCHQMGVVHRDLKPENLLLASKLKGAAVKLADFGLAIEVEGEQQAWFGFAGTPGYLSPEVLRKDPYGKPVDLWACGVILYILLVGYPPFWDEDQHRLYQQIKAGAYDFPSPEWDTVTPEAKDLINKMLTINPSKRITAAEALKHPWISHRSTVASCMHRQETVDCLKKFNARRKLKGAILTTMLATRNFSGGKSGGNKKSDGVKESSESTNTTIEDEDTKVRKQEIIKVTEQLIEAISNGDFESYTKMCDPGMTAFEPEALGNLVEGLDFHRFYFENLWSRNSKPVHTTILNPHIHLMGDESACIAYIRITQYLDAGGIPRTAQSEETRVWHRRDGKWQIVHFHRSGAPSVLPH"}
{"Structure (SMILES)": "N#C/C=C1/C=C[C@@H](O)[C@H](O)[C@H]1O[C@@H]1O[C@H](CO)[C@@H](O)[C@H](O)[C@H]1O", "inhibition": "44%"}
{"Structure (SMILES)": "CCCCCCCCCCCCCC1=C(O)C(=O)C=C(O)C1=O", "inhibition": "-6%"}
{"Structure (SMILES)": "C[C@H](N)C(=O)O", "inhibition": "13%"}
{"Structure (SMILES)": "CCOC(=O)CCC(=O)O[C@H]1[C@H](O[C@@H]2[C@@H](C)[C@H](O[C@H]3C[C@@](C)(OC)[C@@H](O)[C@H](C)O3)[C@@H](C)C(=O)O[C@H](CC)[C@@](C)(O)[C@H](O)[C@@H](C)C(=O)[C@H](C)C[C@@]2(C)O)O[C@H](C)C[C@@H]1N(C)C", "inhibition": "-3%"}
{"Structure (SMILES)": "O=C1O[C@H](CO)[C@@H](O)[C@H]1O", "inhibition": "-14%"}
{"Structure (SMILES)": "C[C@H]1[C@H](C)CC[C@]2(C(=O)O)CC[C@]3(C)C(=CC[C@@H]4[C@@]5(C)C[C@@H](O)[C@H](O)C(C)(C)[C@@H]5CC[C@]43C)[C@H]12", "inhibition": "-29%"}
{"Structure (SMILES)": "COc1ccc(-c2coc3cc(O)c(OC)c(O)c3c2=O)cc1", "inhibition": "25%"}
{"Structure (SMILES)": "CCN(CC)C(=O)[C@]1(c2ccccc2)C[C@@H]1CN", "inhibition": "-2%"}
{"Structure (SMILES)": "CNS(=O)(=O)Cc1ccc2[nH]cc(CCN(C)C)c2c1", "inhibition": "-7%"}
{"Structure (SMILES)": "O=C1c2c(O)cccc2Cc2cccc(O)c21", "inhibition": "3%"}
{"Structure (SMILES)": "CC[C@@]1([C@@H]2O[C@@H]([C@H]3O[C@@](O)(CO)[C@H](C)C[C@@H]3C)C[C@@H]2C)CC[C@H]([C@]2(C)CC[C@]3(C[C@H](O)[C@@H](C)[C@@H]([C@@H](C)[C@@H](OC)[C@H](C)C(=O)O)O3)O2)O1", "inhibition": "33%"}
{"Structure (SMILES)": "CC(C)(Oc1ccc(Cl)cc1)C(=O)O", "inhibition": "16%"}
{"Structure (SMILES)": "C#C[C@]1(OC(C)=O)CC[C@H]2[C@@H]3CCC4=CC(=O)CC[C@@H]4[C@H]3CC[C@@]21C", "inhibition": "10%"}
{"Structure (SMILES)": "OC[C@H]1O[C@H](OC[C@H]2OC(O)(CO)[C@@H](O)[C@@H]2O)[C@H](O)[C@@H](O)[C@@H]1O (some centres unmarked)", "inhibition": "-47%"}
{"Structure (SMILES)": "C=C(C)[C@H](CC=C(C)C)Cc1c(O)cc(O)c2c1O[C@H](c1ccc(O)cc1O)CC2=O", "inhibition": "6%"}
{"Structure (SMILES)": "N#C[C@@H]1CCCN1C(=O)CNC12C[C@@H]3C[C@@H](CC(O)(C3)C1)C2", "inhibition": "5%"}
{"data": "Set 3", "SMILES": "CN1CCN(C(=O)c2ccc(NC(=O)Nc3ccc(N(C)c4ccnc(Nc5ccc(CS(C)(=O)=O)cc5)n4)cc3)cc2)CC1", "tested at": "1 µM"}
{"target": "WEE1 (Homo sapiens, UniProt P30291)", "method": "competitive binding panel", "relative to": "vehicle", "remaining binding [%]": 100}
{"target": "MAP4K3 (Homo sapiens, UniProt Q8IVH8)", "method": "competitive binding panel", "relative to": "vehicle", "remaining binding [%]": 25}
{"target": "EPHB3 (Homo sapiens, UniProt P54753)", "method": "competitive binding panel", "relative to": "vehicle", "remaining binding [%]": 100}
{"target": "BMX (Homo sapiens, UniProt P51813)", "method": "competitive binding panel", "relative to": "vehicle", "remaining binding [%]": 59}
{"target": "SGK2 (Homo sapiens, UniProt Q9HBY8)", "method": "competitive binding panel", "relative to": "vehicle", "remaining binding [%]": 73}
{"target": "JAK2 (Homo sapiens, UniProt O60674)", "method": "competitive binding panel", "notes": "JH1 catalytic domain", "relative to": "vehicle", "remaining binding [%]": 4.7}
{"target": "CSNK1G1 (Homo sapiens, UniProt Q9HCP0)", "method": "competitive binding panel", "relative to": "vehicle", "remaining binding [%]": 100}
{"target": "TLK2 (Homo sapiens, UniProt Q86UE8)", "method": "competitive binding panel", "relative to": "vehicle", "remaining binding [%]": 100}
{"target": "RPS6KB1 (Homo sapiens, UniProt P23443)", "method": "competitive binding", "notes": "S6K1", "remaining binding [%]": 37}
{"target": "SRC (Homo sapiens, UniProt P12931)", "method": "competitive binding panel", "relative to": "vehicle", "remaining binding [%]": 100}
{"target": "OXSR1 (Homo sapiens, UniProt O95747)", "method": "competitive binding panel", "refers to": "OSR1", "relative to": "vehicle", "remaining binding [%]": 98}
{"target": "MYLK4 (Homo sapiens, UniProt Q86YV6)", "method": "competitive binding panel", "relative to": "vehicle", "remaining binding [%]": 98}
{"target": "TGFBR1 (Homo sapiens, UniProt P36897)", "method": "competitive binding panel", "relative to": "vehicle", "remaining binding [%]": 88}
{"target": "PIK3CB (Homo sapiens, UniProt P42338)", "method": "competitive binding panel", "relative to": "vehicle", "remaining binding [%]": 100}
{"target": "PIK3CA (Homo sapiens, UniProt P42336, E545K)", "method": "competitive binding panel", "relative to": "vehicle", "remaining binding [%]": 97}
{"target": "MAPK6 (Homo sapiens, UniProt Q16659)", "method": "competitive binding panel", "refers to": "ERK3", "relative to": "vehicle", "remaining binding [%]": 100}
{"target": "EIF2AK2 (Homo sapiens, UniProt P19525)", "method": "competitive binding", "notes": "PRKR", "remaining binding [%]": 100}
{"data": "Set 4", "SMILES": "COc1cc(-c2cn(C3CCc4c(F)cccc4N(CC(F)(F)F)C3=O)nn2)ccc1-n1cnc(C)c1 (centres unmarked)", "tested at": "1 µM"}
{"target": "MAP3K1 (Homo sapiens, UniProt Q13233)", "read-out": "cell-free assay", "method": "competition with immobilised ligand", "remaining binding": "100%"}
{"target": "CDK13 (Homo sapiens, UniProt Q14004)", "read-out": "cell-free assay", "method": "competition with immobilised ligand", "remaining binding": "99%"}
{"target": "CSNK1A1L (Homo sapiens, UniProt Q8N752)", "read-out": "cell-free assay", "method": "competition with immobilised ligand", "remaining binding": "100%"}
{"target": "MAP3K6 (Homo sapiens, UniProt O95382)", "read-out": "cell-free assay", "method": "competition with immobilised ligand", "remaining binding": "98%"}
{"target": "CHUK (Homo sapiens, UniProt O15111)", "read-out": "cell-free assay", "method": "competition with immobilised ligand", "remaining binding": "100%"}
{"target": "STK11 (Homo sapiens, UniProt Q15831)", "read-out": "cell-free assay", "method": "competition with immobilised ligand", "remaining binding": "100%"}
{"target": "MAP4K5 (Homo sapiens, UniProt Q9Y4K4)", "read-out": "binding", "method": "competition with immobilised ligand", "remaining binding": "5.8%"}
{"target": "Tyrosine-protein kinase ABL1, non-phosphorylated (ABL1, Homo sapiens, UniProt P00519, F317L)", "read-out": "cell-free assay", "method": "competition with immobilised ligand", "remaining binding": "85%"}
{"target": "MAP3K4 (Homo sapiens, UniProt Q9Y6R4)", "read-out": "cell-free assay", "method": "competition with immobilised ligand", "remaining binding": "94%"}
{"target": "WNK3 (Homo sapiens, UniProt Q9BYP7)", "read-out": "cell-free assay", "method": "competition with immobilised ligand", "remaining binding": "100%"}
{"target": "EGFR (Homo sapiens, UniProt P00533, del747-750/T751S)", "read-out": "cell-free assay", "method": "competition with immobilised ligand", "remaining binding": "96%"}
{"target": "CDC42BPB (Homo sapiens, UniProt Q9Y5S2)", "read-out": "cell-free assay", "method": "competition with immobilised ligand", "remaining binding": "100%"}
{"target": "ACVR2A (Homo sapiens, UniProt P27037)", "read-out": "binding", "method": "competition with immobilised ligand", "remaining binding": "0%"}
{"target": "HASPIN (Homo sapiens, UniProt Q8TF76)", "read-out": "cell-free assay", "method": "competition with immobilised ligand", "remaining binding": "87%"}
{"target": "MAP3K3 (Homo sapiens, UniProt Q99759)", "read-out": "cell-free assay", "method": "competition with immobilised ligand", "remaining binding": "100%"}
{"target": "FGFR1 (Homo sapiens, UniProt P11362)", "read-out": "cell-free assay", "method": "competition with immobilised ligand", "remaining binding": "100%"}
{"target": "PLK1 (Homo sapiens, UniProt P53350)", "read-out": "cell-free assay", "method": "competition with immobilised ligand", "remaining binding": "100%"}
{"target": "BMPR1B (Homo sapiens, UniProt O00238)", "read-out": "cell-free assay", "method": "competition with immobilised ligand", "remaining binding": "100%"}
{"target": "PIK3CA (Homo sapiens, UniProt P42336, E542K)", "read-out": "cell-free assay", "method": "competition with immobilised ligand", "remaining binding": "88%"}
{"target": "WEE1 (Homo sapiens, UniProt P30291)", "read-out": "cell-free assay", "method": "competition with immobilised ligand", "remaining binding": "79%"}
{"target": "HCK (Homo sapiens, UniProt P08631)", "read-out": "cell-free assay", "method": "competition with immobilised ligand", "remaining binding": "100%"}
{"target": "MYLK4 (Homo sapiens, UniProt Q86YV6)", "read-out": "cell-free assay", "method": "competition with immobilised ligand", "remaining binding": "100%"}
{"target": "Aurora kinase C (AURKC, Homo sapiens, UniProt Q9UQB9)", "read-out": "cell-free assay", "method": "competition with immobilised ligand", "remaining binding": "100%"}
{"target": "MAP4K2 (Homo sapiens, UniProt Q12851)", "read-out": "cell-free assay", "method": "competition with immobilised ligand", "remaining binding": "100%"}
{"target": "CDK19 (Homo sapiens, UniProt Q9BWU1)", "method": "competition binding", "remaining binding": "97%"}
